Values quoted from earlier work, collected from citations in different studies.
Each line is one published result; not all experiments were run side by side. ± gives the spread as reported.
UniProt Q9Y5N1, sequence (whole entry, looked up): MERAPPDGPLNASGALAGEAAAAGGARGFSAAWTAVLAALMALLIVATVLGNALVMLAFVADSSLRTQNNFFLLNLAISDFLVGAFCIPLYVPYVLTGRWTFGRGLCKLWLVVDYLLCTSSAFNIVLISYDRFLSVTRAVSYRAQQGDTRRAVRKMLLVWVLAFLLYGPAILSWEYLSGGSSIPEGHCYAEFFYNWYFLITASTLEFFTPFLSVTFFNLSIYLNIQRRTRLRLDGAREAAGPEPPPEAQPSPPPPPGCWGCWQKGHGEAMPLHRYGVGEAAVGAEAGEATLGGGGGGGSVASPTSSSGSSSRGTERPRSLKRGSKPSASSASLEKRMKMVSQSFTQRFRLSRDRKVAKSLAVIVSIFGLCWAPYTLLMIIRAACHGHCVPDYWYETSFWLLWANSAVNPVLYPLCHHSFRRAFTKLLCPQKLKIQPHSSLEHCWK
UniProt P33535, sequence (whole entry, looked up): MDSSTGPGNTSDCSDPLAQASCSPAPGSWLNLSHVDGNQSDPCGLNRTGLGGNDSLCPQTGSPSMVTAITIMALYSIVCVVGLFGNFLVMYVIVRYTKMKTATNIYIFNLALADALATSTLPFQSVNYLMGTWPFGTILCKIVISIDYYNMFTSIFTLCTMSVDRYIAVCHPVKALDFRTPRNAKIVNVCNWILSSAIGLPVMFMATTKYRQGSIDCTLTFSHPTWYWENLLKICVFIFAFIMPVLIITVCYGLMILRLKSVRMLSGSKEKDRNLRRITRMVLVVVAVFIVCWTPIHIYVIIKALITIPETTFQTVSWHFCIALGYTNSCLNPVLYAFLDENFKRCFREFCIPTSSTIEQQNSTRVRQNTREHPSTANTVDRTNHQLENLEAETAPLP
UniProt P30542, sequence (whole entry, looked up): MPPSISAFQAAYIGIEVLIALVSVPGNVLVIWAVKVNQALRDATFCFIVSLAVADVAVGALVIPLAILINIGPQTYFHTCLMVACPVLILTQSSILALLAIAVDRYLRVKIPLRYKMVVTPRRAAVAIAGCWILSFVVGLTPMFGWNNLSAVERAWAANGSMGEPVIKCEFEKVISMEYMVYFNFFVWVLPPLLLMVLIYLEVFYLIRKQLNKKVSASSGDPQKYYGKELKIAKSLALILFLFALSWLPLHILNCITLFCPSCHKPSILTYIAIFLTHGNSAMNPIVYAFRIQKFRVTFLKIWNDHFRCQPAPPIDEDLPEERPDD

Molecule | target or system | assay | system | conditions | scale | endpoint | value
(R)-α-methylhistamine | HRH3 (Homo sapiens, UniProt Q9Y5N1) |  |  |  |  | Hill coefficient | 1.1
H-Bcp-Tic-OH | Oprm1 (Rattus norvegicus, UniProt P33535) | binding | rat brain membranes | together with: [3H]DAMGO |  | Ki | 2270 ± 210 nM
buprenorphine |  |  |  |  |  | half-life | 32 h
buprenorphine |  |  | human | dose not given, together with: efavirenz | baseline: compound alone | AUC(0-24h) decrease | 49%
maraviroc |  |  | human |  | baseline: rectal tissue over blood plasma | AUC ratio | 8 to 26
R(-)-PIA | ADORA1 (Homo sapiens, UniProt P30542) |  |  |  |  | Hill coefficient | 0.9
cocaine hydrochloride |  |  | mouse (CD-1, male), brain | intraperitoneal, 20 mg/kg, 15 min |  | brain concentration | 3.45 ng/mg
